Assay results of several laboratories.
Parts stem from different laboratories: compare values within a part only. Changes are numbered by the printed parent chain.

Set 1 — method: DHFR PCA, dose-response; matrix: yeast; setting: Hill fit, mean, not affinity; added: (+)-ABA, dose series; reading: lower = more sensitive; quantity: ABA EC50
Target: ABI1, truncated, D143A, DHFR fusion (Arabidopsis thaliana, UniProt P49597)
Parent: PYL1, truncated, DHFR fusion (Arabidopsis thaliana, UniProt Q8VZS8); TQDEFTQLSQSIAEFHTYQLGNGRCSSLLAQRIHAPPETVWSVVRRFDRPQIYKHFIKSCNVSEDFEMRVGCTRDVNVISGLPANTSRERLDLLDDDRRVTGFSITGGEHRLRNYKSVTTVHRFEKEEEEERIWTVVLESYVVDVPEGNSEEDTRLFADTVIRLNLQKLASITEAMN
S42Q: 3.02 µM
G102A: 9.13 µM
L94W: 6.04 µM
E152T: 4.21 µM
I57S: 484 µM
I57M: 65.3 µM
H34F: 4.45 µM
R24M: 2.29 µM
D3G: 4.92 µM
F5W: 3.83 µM
R98C: 27.9 µM
E109V: 7.66 µM
V62Q: 129 µM
E38W: 15.7 µM
I162A: 319 µM
E4L: 2.12 µM
V143M: 22.1 µM

Set 2 — method: universal PBM; molecule type: double-stranded DNA, one strand shown; matrix: in vitro; tested at: not given; reading: higher = stronger binding; quantity: E-score
Target: Sal-like protein 4, full length isoform B (SALL4, Homo sapiens, UniProt Q9UJQ4-2, residues 1-616)
Setting: 8-mer, flanks averaged, mean of replicates
Target sequence (chain): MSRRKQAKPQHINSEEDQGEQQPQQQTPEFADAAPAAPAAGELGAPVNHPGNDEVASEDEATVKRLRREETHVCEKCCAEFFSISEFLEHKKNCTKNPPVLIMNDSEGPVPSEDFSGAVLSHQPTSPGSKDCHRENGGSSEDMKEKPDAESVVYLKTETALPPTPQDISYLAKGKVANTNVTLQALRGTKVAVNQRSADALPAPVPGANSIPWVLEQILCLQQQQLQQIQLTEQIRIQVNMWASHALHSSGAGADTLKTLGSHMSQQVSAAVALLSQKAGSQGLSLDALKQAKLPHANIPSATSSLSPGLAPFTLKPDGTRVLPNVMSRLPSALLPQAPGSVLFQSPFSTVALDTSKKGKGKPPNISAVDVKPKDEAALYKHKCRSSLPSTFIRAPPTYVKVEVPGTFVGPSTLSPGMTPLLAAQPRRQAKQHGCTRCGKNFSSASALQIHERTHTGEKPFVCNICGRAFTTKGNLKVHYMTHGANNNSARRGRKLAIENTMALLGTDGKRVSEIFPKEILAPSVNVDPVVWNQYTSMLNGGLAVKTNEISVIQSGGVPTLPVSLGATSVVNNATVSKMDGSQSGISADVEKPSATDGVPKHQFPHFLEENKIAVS
TCAAGCAA: -0.0773
CCCACCAA: -0.169
GGAACGTA: -0.00536
ATTAGGTG: 0.0997
CAAGGTAC: 0.0248
GAACTGCA: -0.0425
ATCCGTAG: -0.0304
GGGAAAAA: 0.0982
CGTGTTTA: 0.174
GGCTCGTA: -0.0622
GTGAAGCA: -0.0337
AGGAAGCA: -0.00418
CCGCCATC: -0.281
CTATCCCA: -0.0321
AGCGGTTA: 0.0957
AAGTCGAT: 0.095
GTGGGTAA: -0.104
GGATGGGA: -0.185
ACGGGTGC: -0.18
TGTCGTAA: 0.0635
GCCACACA: -0.123
TATTCAGA: 0.184
GGTGGCAA: -0.162
CTTGGGAA: 0.0242
ACCAGATA: 0.241

Set 3 — target: CCND2, cyclin fold, Cln2 fusion (human); method: yeast growth competition, sequencing; matrix: yeast; setting: weak parent motif; relative to: not given; reading: higher = stronger binding; quantity: normalised enrichment score
Parent: BRCA2 docking peptide (human); PSIKRNLLNEFDR
L7P: -0.0854
N9I: 0.516
R13V: 0.237
P1Y: 0.882
N9L: 0.0441
E10T: -0.605
P1L: 0.28
I3V: 0.134
P1R: 0.358
F11M: 0.251
R5K F11L: -0.214
L8A: 0.223
I3M: -0.0413
R5A: -0.208
P1K: 0.219

Set 4 — method: protein binding microarray; molecule type: double-stranded DNA, one strand shown; matrix: in vitro; tested at: not given; relative to: not given; reading: higher = stronger binding; quantity: E-score
Target: Histone acetyltransferase KAT6A, winged helix 2, GST fusion (KAT6A, Homo sapiens, UniProt Q92794, residues 85-181)
Setting: 8-mer, flanks averaged, mean of 2 arrays, mostly near background
Construct (chain): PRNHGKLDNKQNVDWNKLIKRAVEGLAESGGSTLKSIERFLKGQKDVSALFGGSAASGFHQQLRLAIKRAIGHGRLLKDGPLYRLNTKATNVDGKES
ACTTCCCC: -0.158
ACGCCCCG: 0.0878
TGCATGAA: -0.0028
GTCCTGAA: -0.0274
ATGTAGGA: -0.188
GATACGAC: -0.169
GACCAAGA: 0.0327
CAAGGCTG: -0.0827
ATGTCGCC: -0.132
AGGCCAAA: -0.0152
ACTGGATC: -0.0393
GCTGATCC: -0.00822
CGCCATCC: 0.154
CAGAAAGA: 0.133
AATCGTGG: 0.00551
AAACGGCT: -0.102
GGTATTCA: 0.0521
AAGACTCG: -0.0711
AGGTCGTG: 0.00364
CGGCTATC: -0.0187
AAGGCCTG: 0.0693
TAGTCAAA: -0.113
CAAGACGC: 0.053
CCTGGTCC: 0.0631

Set 5 — method: RNA Bind-n-Seq; molecule type: RNA; matrix: in vitro; tested at: not given; relative to: input RNA pool; reading: higher = stronger binding; quantity: bound/input enrichment
Target: RING finger protein unkempt homolog, zinc fingers 1-6, GST-SBP tag (UNK, Homo sapiens, UniProt Q9C0B0, residues 30-357)
Setting: RNA with constant flanks, human and mouse sites, ends assumed
Shared flanks, not repeated: GGGAGUUCUACAGUCCGACGAUC … CAACAGAGGAUUGAGCAUCA
Target sequence (chain): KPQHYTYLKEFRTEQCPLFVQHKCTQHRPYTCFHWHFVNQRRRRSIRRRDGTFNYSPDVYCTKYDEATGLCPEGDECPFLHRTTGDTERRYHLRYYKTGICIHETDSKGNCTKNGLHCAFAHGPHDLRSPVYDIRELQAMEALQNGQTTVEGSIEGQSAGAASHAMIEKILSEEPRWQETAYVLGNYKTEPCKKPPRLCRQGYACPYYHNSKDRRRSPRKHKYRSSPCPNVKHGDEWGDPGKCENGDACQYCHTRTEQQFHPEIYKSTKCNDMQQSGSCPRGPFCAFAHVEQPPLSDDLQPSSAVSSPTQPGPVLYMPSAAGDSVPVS
CUUUCUGUCCCCUCCUAUACAGUUUCCGUUUCUUUUUACACUUGCUUGCCCAGCCGUCUGUAGUACACCAGAUUCAGGUGUUUGCGCUGUGUAGAAUUUGUGUGCACAGAUACGUGCUUG: 0.386 ratio
GCUCCGUGCUCCAUUCUCACUGUACUUGGUAUUAUAUUUUUUAUAAAUAAGAUUUUUAUGUAAAGCUCAGAUUUUGAUUUACAAGGACCUUGCUGCAGUAAAUAUUCCAUCAAUCUUGUG: 0.94 ratio
GGCAUGCAUGGAGGUGGUCCUGGUGGGCCCGGAGGUGGCCCCCACAGCUUCCCACACCCAUUACCCAGCCUGACAGGUGGGCAUGGUGGACAUCCCAUGCAGCACAACCCCAAUGGACCC: 0.144 ratio
UGGCAAGGGUUGUGUAAAUCUACAUGGGGUCACUGCUCUAUAUACAAUAAGAACCCACCUUUAGGAUUUUCUUUUAGAAAAUUGUAUAUGCAGCUAGAUGAGGGAAGCCUCACCUUUAAU: 1.4 ratio
CCUGAGGUGCGGCACCACUGUCCCAACACUCCCAUCAUCCUAGUGGGAACUAAACUUGAUCUUAGGGAUGAUAAAGACACGAUCGAGAAACUGAAGGAGAAGAAGCUGACUCCCAUCACC: 0.379 ratio
CCUCAUGUUCAUUCAAAGGAUAAAAGCCAUAUUCCUUCUAGCCUAGAUAAUGUAAAUCACAAAAUUGUUCAUGAAUGUCAGGAACUUUCUUCACCUGUCAUUACUACAUCUCCUGCAUCA: 3.8 ratio
CGCGGCCCCGCGACCCUCGGGGGUCGCUGAGAGGCCCGGCGUCGGCGCCGCAGCCGUCUAGGAUUUCUGUCCAAAGGCGUCCCUGGCGUCCCCAGCCCGAAGCUCCAAGCUCGGGGCUGC: 0.113 ratio
AGGAAGAGAAAAUGCCUGCUGUUGUAAAUGUCGGAGCCCCUCGUUCUCGGUCCUGCCUGGAACCUUUGUACGCUUUGCUCAAAAAUCAGCGAGCCUUCGCAUUUGAUGCCAAGUUUUUGU: 0.0744 ratio

For quick reference, copied from above (set 3):
P1Y: 0.882
N9L: 0.0441
E10T: -0.605
P1L: 0.28
I3V: 0.134
P1R: 0.358
F11M: 0.251
